Experimental data pooled from the literature.
A part holds a random share of what one study measured.

Sample 1
Target: Interferon regulatory factor 7, full length, phosphomimetic (IRF7, Homo sapiens, UniProt Q92985, residues 1-503, S471D/S472D/S475D/S476D/S477D/S483D/S484D/S487D)
Method: protein-binding microarray
Form: double-stranded DNA, one strand shown
Medium: in vitro
Concentration: 2200 nM top
Setting: 60-bp whole probe
Added: salmon DNA 0.4 mg/ml
Relative to: random background probes
Direction: higher = stronger binding
Constant ends, left off below: GCCTAGCAC … GTCTTGATTCGCTTGACGCTGCTG
Residues (chain): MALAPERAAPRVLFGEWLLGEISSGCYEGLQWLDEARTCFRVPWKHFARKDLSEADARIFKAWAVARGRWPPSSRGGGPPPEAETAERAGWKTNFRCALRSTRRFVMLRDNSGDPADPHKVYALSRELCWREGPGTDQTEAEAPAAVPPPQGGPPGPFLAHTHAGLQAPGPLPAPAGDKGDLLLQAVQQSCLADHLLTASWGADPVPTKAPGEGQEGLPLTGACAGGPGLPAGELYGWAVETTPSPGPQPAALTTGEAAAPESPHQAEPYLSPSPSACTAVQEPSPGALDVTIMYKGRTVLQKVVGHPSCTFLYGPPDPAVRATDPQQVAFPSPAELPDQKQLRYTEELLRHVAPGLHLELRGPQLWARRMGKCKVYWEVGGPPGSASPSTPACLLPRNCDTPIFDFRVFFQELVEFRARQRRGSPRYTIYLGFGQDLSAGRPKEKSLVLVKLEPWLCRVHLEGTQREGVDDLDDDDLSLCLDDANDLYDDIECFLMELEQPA
| Strand | fitted relative affinity |
| --- | --- |
| CTTTCTTTATGCACTCTCTACGTGCTA | 2.19 z-score |
| TCAGATATCAGTATCGATTAGTGCTAG | 0.464 z-score |
| TCAGTTTTCAATTTTTGACTGTGCTAG | 2.06 z-score |
| GCCCCTTTCCTTTGCCTCTGGTGCTAG | 2.54 z-score |
| TTAGGTATCGGGTATCGGTTGGTGCTA | 0.861 z-score |
| TCATATGTCTGTTTTTGACTGTGCTAG | 1.48 z-score |
| GACGATAGCGGGTATCGAGACGTGCTA | -0.307 z-score |
| CTTGCTTCCTAATTCTCTTTGTGCTAG | 2.06 z-score |
| ACTTTTTTTTTTCCCTGAAAGTGCTAG | 2.49 z-score |
| TTAGGTTCCCTTTTTCTTTAGTGCTAG | 1.94 z-score |
| GGCCCTTTGCTTTCCTGATGGTGCTAG | 1.01 z-score |
| TCATGTTTCCTTCCTCTACTGTGCTAG | 3.76 z-score |
| CTTTCTTTATGCACTCTTTACGTGCTA | 2.24 z-score |
| GACGGTCTCCTATTCCTGACGTGCTAG | 1.28 z-score |
| GACGGTTCCGGTTTCGGTACGTGCTAG | 6.63 z-score |
| TTAGGTCTCGGTTTCGGGTAGTGCTAG | 5.24 z-score |
| GATGATATCGGGACTGGAGACGTGCTA | -0.362 z-score |
| TTAGATATAAGTATCGATTAGTGCTAG | -0.176 z-score |
| GACCGTCTCGGACTGGGGACGTGCTAG | -0.543 z-score |
| TCAGATTTCAGACTGGATTAGTGCTAG | 0.364 z-score |
| TCAGGTTTCCTTTTCCTTTAGTGCTAG | 7.34 z-score |
| AGGCTCATACATCTGGGTGGGTGCTAG | -0.335 z-score |
| TCCCTATTATATATATCATAGTGCTAG | 1.71 z-score |
| GACGGTATCGGTCTCGGGAGGTGCTAG | -0.202 z-score |
| TTAGATCTCAGTCTCGATTAGTGCTAG | 0.442 z-score |

Sample 2
Target: Histone acetyltransferase KAT6A, both winged helices, GST fusion (KAT6A, Homo sapiens, UniProt Q92794, residues 1-181)
Method: protein binding microarray
Form: double-stranded DNA, one strand shown
Medium: in vitro
Concentration: not given
Setting: 8-mer, flanks averaged, mean of 2 arrays, mostly near background
Relative to: not given
Direction: higher = stronger binding
Construct (chain): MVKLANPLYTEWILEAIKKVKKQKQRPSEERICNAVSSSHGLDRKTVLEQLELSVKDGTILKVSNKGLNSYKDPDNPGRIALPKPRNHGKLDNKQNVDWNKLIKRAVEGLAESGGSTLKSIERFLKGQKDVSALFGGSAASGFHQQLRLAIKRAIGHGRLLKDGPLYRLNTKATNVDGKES
| Strand | E-score |
| --- | --- |
| AAATGAGG | -0.258 |
| CCGAGATC | -0.0375 |
| ACGGGACA | 0.26 |
| AAGTTCCG | 0.127 |
| AGAATTAT | -0.024 |
| CGAGACAG | -0.0681 |
| AAGATAGG | -0.249 |
| AGATGTTC | -0.153 |
| CGTTGTGC | 0.123 |
| AAGCTCCA | -0.0995 |
| AACCGAAA | 0.085 |
| AGCTACCT | 0.008 |
| GAACGGCA | 0.246 |
| ACCTTGGC | -0.154 |
| CCGAACAG | 0.00647 |
| AATATTTC | -0.0575 |
| AGTGGATA | -0.127 |
| GGGTTGAC | -0.0335 |
| CAATTCAA | -0.113 |
| AGACGGCA | 0.257 |
| ACTGTCTC | -0.122 |
| CAACCGAC | 0.0705 |
| AACCTGGT | -0.133 |
| GCAGTTTA | -0.0827 |
| TAGATTCA | -0.14 |

Sample 3
Target: Ras GTPase-activating protein-binding protein 1, full length (G3BP1, Homo sapiens, UniProt Q13283)
Chain of UniProt Q13283 (whole entry, looked up): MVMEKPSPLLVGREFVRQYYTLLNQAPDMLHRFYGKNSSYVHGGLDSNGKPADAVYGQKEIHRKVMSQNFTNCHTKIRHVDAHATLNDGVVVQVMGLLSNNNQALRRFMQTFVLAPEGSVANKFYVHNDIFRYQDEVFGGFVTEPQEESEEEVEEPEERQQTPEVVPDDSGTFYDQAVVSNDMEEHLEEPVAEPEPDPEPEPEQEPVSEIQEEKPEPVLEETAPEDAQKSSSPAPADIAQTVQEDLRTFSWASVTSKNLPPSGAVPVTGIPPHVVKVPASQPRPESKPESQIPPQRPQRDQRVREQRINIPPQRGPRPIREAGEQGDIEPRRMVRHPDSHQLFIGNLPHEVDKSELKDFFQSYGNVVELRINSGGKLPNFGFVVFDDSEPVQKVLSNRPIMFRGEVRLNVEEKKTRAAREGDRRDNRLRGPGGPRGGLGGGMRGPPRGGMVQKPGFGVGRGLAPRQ
Method: RNA Bind-n-Seq
Form: RNA
Medium: in vitro
Concentration: 200 nM
Setting: whole 134-nt RNA, ends assumed
Added: 150 mM LiCl
Relative to: input library
Direction: higher = stronger binding
Library: 7-deaza-guanosine replaces G
Constant ends, left off below: GGGAGUUCUACAGUCCGACGAUC … UGGAAUUCUCGGGUGUCAAGG
| Strand | log2 enrichment |
| --- | --- |
| CACAGACAACACGCACCCACACAGACACAGAGGGAAGGGGUGGGGAUGGGGACAGGGUGCACAGCAGGGCGGGGUAGGACCCCAGCCCCU | -1.42 |
| UCAAGUCCUGUGCUACACAUCGUAUGUACCGAAUCGGGCCGGGGCCGGGCCGGGGAAAGUAUUAUGUUACGCCGUUCGGAUCUGCACUUC | 0.5 |
| UCAAGUCCUGUGCUACACAUCGUAUGUACCGAAUCGGUUUUUGGAAAAAGGAGGAAAGUAUUAUGUUACGCCGUUCGGAUCUGCACUUCC | 0.0424 |
| CACAGACAACACGCACCCACACAGACACAGAGGGAAGGGGUUGGGAUGGGGACAGGGUGUACAGCAGGGCGGGGUAGGACCCCAGCCCCU | -0.158 |
| UCCCAAUGCUCGGAGGAAGCCCAAGGGCAGCCCUCGUGUACCUGAUGCCAAGAAGCCUAAACCCAAGAAAGUAGCUCCCCUGAAAAUCAA | 1.43 |
| UAACUUUAGUGGAGGAUCUGAUGGAUAUGGCAGUGGACGUGGAUUUGGGGAUGGCUAUAAUGGGUAUGGAGGAGGACCUGGAGGUGGCAA | 0.0466 |
| CCUCAAGUCCUGUGCUACACAUCGUAUGUACCGAAUCGGAGGGGAGGGAGGGAAAGUAUUAUGUUACGCCGUUCGGAUCUGCACUUCCAG | 0.449 |
| UCAAGUCCUGUGCUACACAUCGUAUGUACCGAAUCGGGAGGGAGGGUUUUUGGGAAAGUAUUAUGUUACGCCGUUCGGAUCUGCACUUCC | 0.356 |
| ACCAUGUAGGUGGGCAUCUUUGGGAAGUGGGGCAAGGGGGGGAUAGGGAGGGGGGUAACACUUUGGGAACAGGUGGUCCCAGGUCGUUUC | 0.305 |
| AAGUCCUGUGCUACACAUCGUAUGUACCGAAUCAAAUUUAAACCCCCAAACCCAAAAAAGUAUUAUGUUACGCCGUUCGGAUCUGCACUU | 1.31 |
| UCCUCAAGUCCUGUGCUACACAUCGUAUGUACCGAAUCGGAGGAGGAAAGGAAAGUAUUAUGUUACGCCGUUCGGAUCUGCACUUCCAGC | -1.17 |

Sample 4
Target: PABPC1L2, full length, GST fusion (mouse, UniProt A0ABA7IW68)
Method: RNAcompete
Form: RNA
Medium: in vitro
Concentration: 20 nM
Setting: 7-mer, probes averaged, single round
Relative to: mean of 7-mers
Direction: higher = stronger binding
Construct (chain): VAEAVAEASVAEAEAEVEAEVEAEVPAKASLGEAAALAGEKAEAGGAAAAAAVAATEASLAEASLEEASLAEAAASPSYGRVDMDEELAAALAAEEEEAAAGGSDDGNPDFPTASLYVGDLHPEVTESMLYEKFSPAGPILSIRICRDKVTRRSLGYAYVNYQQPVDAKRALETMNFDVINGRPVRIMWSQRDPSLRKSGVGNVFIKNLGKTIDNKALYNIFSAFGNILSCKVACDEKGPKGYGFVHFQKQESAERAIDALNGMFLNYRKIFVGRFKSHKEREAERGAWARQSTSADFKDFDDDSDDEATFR
| Strand | 7-mer Z-score |
| --- | --- |
| UGAAUCA | -0.0174 |
| UCCCGUA | -0.344 |
| UUGAUGU | -0.258 |
| ACGGCUC | -0.0844 |
| UCCCAGU | -0.262 |
| CAUAGUG | -0.244 |
| AUUAGUG | -0.132 |
| AUUCAGG | 0.0279 |
| AUCCUGU | -0.432 |
| GGCGCUC | -0.00833 |
| GGGGACC | 0.16 |
| UCUCGAC | -0.262 |
| GAUUAAU | -0.141 |
| AUAAUGU | -0.106 |
| GAUGCGU | -0.177 |
| CACGUGG | -0.00833 |
| CACUAUU | -0.126 |
| AACGAGA | 0.294 |

Sample 5
Target: RNA binding protein fox-1 homolog 2, RRM domain, GST-SBP tag (RBFOX2, Homo sapiens, UniProt O43251-10, residues 100-194)
Method: RNA Bind-n-Seq
Form: RNA
Medium: in vitro
Concentration: 365 nM
Setting: natural RNA segment, single round, ends assumed
Relative to: no-protein control
Direction: higher = stronger binding
Constant ends, left off below: GGGAGUUCUACAGUCCGACGAUC … UGGAAUUCUCGGGUGCCAA
Target sequence (chain): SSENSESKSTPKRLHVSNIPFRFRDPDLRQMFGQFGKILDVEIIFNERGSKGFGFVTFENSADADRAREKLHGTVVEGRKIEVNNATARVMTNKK
| Strand | RBNS enrichment (R) |
| --- | --- |
| AGAUUGCUAGGUAGAUAGACACACACACAUGCACACACACACAUCUGGAGAUGGCAAAAUCCUCUAAAAUGUCGAGGUCUCUUGAAGACUUGAGAAGCUGUCACAAGGUC | 1.52 |
| GUGUGAUCCUCCUUGAGCAUUGAGGAGGCACAUGGAGAACUAAAUCUUUUGUAGUAGCUGAGAUCUGCAAUAUAUAACGGGACAGUCAAAGGGCAAUGUUUUUCUGUAAC | 0.685 |
| UCGUUUGGAAGGAAAGCUGGGUAACGUUUUGGGCACAGGGGAAGGAGGACUCCGGUCUUAACUCCCACGCUAACUUUAGCUCAAGUGGAGUUUUCACCGUGGUCAUUUCU | 0.484 |
| GAUCCUGGCAUCUAUUUAUGCAACUAAAUACUUUUCAGAAAUGGUAUAUAAAAGGCUACAGUUUAAUAUCUGUAUUUUUAUAAAAGUAUGAUGAAGGGUUUGGGGUGUUU | 0.711 |
| UGAGGCAGGAGAAUUGCUUAAACCUGGGAGGUGGAGGCUGCAGUGAGCCAAGAUCGUGCCACUGCACUCCAGCCUGAGUGACAGAGCAAGACUCCGUCAAAAAAAAAAAA | 0.703 |
| AAAUGUUUUGGAGAGCGGGAGGUUUCCCCCAAUCUCCUCCAAGUUCUUCUCCCUCCAACCAGAGUUGUGUCUAACUUUAGGCAUCUUUUAAUAAAUGUCAUUGCGACUCU | 0.234 |
| CUGAUGCAUCAAACUUGAGUUUUUUCCACCUCAUCUUUCCCAGUGUUUGGAAAGGUGUGAGGGUAGAGGGUUGUUUUUUUUUUUAAGGUGUAUUUGAAUGACUAUUUUAU | 0.608 |
| UGCUAAUAGUAAGUUCUUUGUGCACCUUCCACCACUUCUGAGCCACUACUAUUCAAGUAGAGAUUUGCCCCAACACAUUAACUUUUUCCUUGGAGAUUUAUAUGGUCCUG | 0.422 |
| UUACUGUCUCUUCUGGUUAUAAAGCAGACAUGUGGCCAUCUUUUCCGCAGGGUUAGAGUGGGCUCCUUUCUUUUUGGAAUCCUUUUCUUCUCCUUUGGUAGCAGCUCCCU | 0.308 |
| GAUUGGGAGAGGAGGCAGCUUAGCUGGAAGCUGUGCCCAUCUUACUGUCACUGGAGAAUAGGAUGUCAGAGCUGGGCAGGACUGGUACCCAUCAUUUGCAGUUUGCAUGU | 12.2 |
| UAUUUUCCUUACUGAAAUCAAGUGUUUGACUUUUUACAAAAGUGAAACCUUACCCGAGAGGAGUUUCCUAUCUCUGGAUGGCAGUUGAUUCACUGUAAGUGUUCUGUGGC | 0.285 |
| AACAGGGAGGCACCUGGUAUCUCGAGUGCCUGCAGUUGCAAGUAUGUUUACACCUGGUGUCCAAUUUUGUAUUUUAAAAUGUAAUCCAUUUUUACUUCAGCUCAUCCAAA | 0.374 |
